# Experimental data gathered from unrelated publications.
# Lines come from different studies, so protocols differ. ± gives the spread as reported.
Structure (SMILES),assay,test system,setting,how to read,quantity,result
C=C1C[C@@H]2[C@H](CC[C@]3(C)C(=O)CC[C@@H]23)[C@@]2(C)C=CC(=O)C=C12,LC-MS/MS,"postmenopausal breast cancer patients, plasma","oral, 25 mg/day, 2 h, steady state, outlier excluded",relative to: CYP3A4*22 carriers over non-carriers,plasma concentration difference,43%
COc1ccsc1CNCC[C@@]1(c2ccccn2)CCOC2(CCCC2)C1,,"healthy human, normal hepatic function, plasma","intravenous, 1 mg single dose, arithmetic mean",,volume of distribution (Vz),129 ± 27.9 L
COc1nc2ccc(Br)cc2cc1[C@@H](c1ccccc1)[C@@](O)(CCN(C)C)c1cccc2ccccc12,,"mouse, BALB/c, plasma","oral, 25 mg/kg, 72 to 168 h terminal",,t1/2,89.3 h
C[C@@H]1N=C(c2ccccc2F)c2cc(Br)ccc2NC1=O,,"male Wistar rat, plasma","intraperitoneal, 10 mg/kg, 20 min",,concentration,1590 nM
C[C@]12CC[C@H]3[C@@H](CCC4=CC(=O)CC[C@@]43C)[C@@H]1CC[C@@H]2O,metabolic stability,"male beagle dog, liver microsomes","10 µM, pH 7.4",,half-life,0.425 h
CN1C(=O)CC(=O)N(c2ccccc2)c2cc(Cl)ccc21,,"CF-1 mouse, brain","intraperitoneal, 17 mg/kg",,half-life,1.51 h
COc1cccc(C2(O)CCCCC2CN(C)C)c1 (stereo not shown),"cytochrome c release, ELISA",BALB/cByJ female mouse liver mitochondria,30 min,relative to: alamethicin maximal release,EC20,> 400 µM
COc1ccc2c(c1)[C@]13CCCC[C@@H]1[C@H](C2)N(C)CC3,,"rat, striatum, hippocampus, cortex","intraperitoneal, 30 mg/kg, three doses, 1 week",,brain 5-HT and 5-HIAA levels,no effect
NC(=O)c1ccc2c(c1O)[C@]13CCN(CC4CC4)[C@H](C2)[C@]1(O)CCC(=O)C3,,Sprague Dawley rat,"subcutaneous, 30 min, total plasma 46.1 ng/mL",,unbound brain concentration,23.1 nM
Cc1ncc2n1-c1ccc(Cl)cc1C(c1ccccc1F)=NC2,,"human CYP3A5*3/*3 non-expressers, serum","oral, median, added: ketoconazole 200 mg",,Tmax,1.5 h
CCCCCCCCCCC(=O)O[C@H]1CC[C@H]2[C@@H]3CCC4=CC(=O)CC[C@]4(C)[C@H]3CC[C@]12C,,"blood of hypogonadal men, plain tubes",100 ng/mL,,serum testosterone,89.5 ± 4.9 ng/dL
CO[C@H]1/C=C/O[C@@]2(C)Oc3c(C)c(O)c4cc(c(/C=N/N5CCN([11CH3])CC5)c(O)c4c3C2=O)NC(=O)/C(C)=C\C=C\C(C)[C@H](O)[C@@H](C)[C@@H](O)[C@@H](C)[C@H](OC(C)=O)[C@@H]1C (stereo partly shown),,"baboon, lung","10 mg/kg, 90 min",,lung concentration,6.78 µg/mL
CN1CC[C@@]23CCCC[C@@H]2[C@@H]1Cc1ccc(O)cc13,,"Wistar rat, both sexes, plasma","oral, 5 mg/kg DEM, DEM 2 h after pretreatment, added: QN 2.5 mg/kg single pretreatment",,MRT(0-t),4.09 ± 0.72 h
Cc1ncc2n1-c1ccc(Cl)cc1C(c1ccccc1F)=NC2,,"healthy men, plasma","oral, 7.5 mg, day 26, geometric mean, added: 14 days post amenamevir",,Cmax,36.8 ng/mL
C[C@H]1CNCCc2ccc(Cl)cc21,,"Sprague-Dawley rat, male, plasma","subcutaneous, 3 mg/kg, 30 min",,plasma concentration,97.5 ± 7.97 ng/mL
Cc1ncc2n1-c1ccc(Cl)cc1C(c1ccccc1F)=NC2,,"healthy human volunteers, plasma","oral, 5 mg single dose, geometric mean, added: double-strength cranberry juice",,AUC(0-last),0.259 µM·h
N[C@@]1(c2ccccc2Cl)CCC[C@@H](O)C1=O,,"male CD-1 mice, brain","intravenous, 50 mg/kg, 10 min",,brain concentration,20.4 µg/g
COc1ccc2c(c1)[C@]13CCCC[C@@H]1[C@H](C2)N(C)CC3,,"Wistar rat, both sexes, plasma","oral, 5 mg/kg, 2 h after pretreatment, added: single quinidine 2.5 mg/kg",,MRT(0-t),3.03 ± 1.04 h
CC(C)C[C@@H]1NC(=O)[C@H](C)N(C)C(=O)[C@H](Cc2ccccc2)NCc2cc(cn2C)CNC1=O,,PAMPA,"100 µM, 17 h, pH 6.4",,Papp,0.24 ×10⁻⁶ cm/s

# For quick reference, copied from above:
Structure (SMILES),assay,test system,setting,how to read,quantity,result
Cc1ncc2n1-c1ccc(Cl)cc1C(c1ccccc1F)=NC2,,"healthy human volunteers, plasma","oral, 5 mg single dose, geometric mean, added: double-strength cranberry juice",,AUC(0-last),0.259 µM·h
N[C@@]1(c2ccccc2Cl)CCC[C@@H](O)C1=O,,"male CD-1 mice, brain","intravenous, 50 mg/kg, 10 min",,brain concentration,20.4 µg/g
COc1ccc2c(c1)[C@]13CCCC[C@@H]1[C@H](C2)N(C)CC3,,"Wistar rat, both sexes, plasma","oral, 5 mg/kg, 2 h after pretreatment, added: single quinidine 2.5 mg/kg",,MRT(0-t),3.03 ± 1.04 h
